Published values pooled from the literature.
A part holds a random share of what one study measured.
UniProt P35626, sequence (whole entry, looked up): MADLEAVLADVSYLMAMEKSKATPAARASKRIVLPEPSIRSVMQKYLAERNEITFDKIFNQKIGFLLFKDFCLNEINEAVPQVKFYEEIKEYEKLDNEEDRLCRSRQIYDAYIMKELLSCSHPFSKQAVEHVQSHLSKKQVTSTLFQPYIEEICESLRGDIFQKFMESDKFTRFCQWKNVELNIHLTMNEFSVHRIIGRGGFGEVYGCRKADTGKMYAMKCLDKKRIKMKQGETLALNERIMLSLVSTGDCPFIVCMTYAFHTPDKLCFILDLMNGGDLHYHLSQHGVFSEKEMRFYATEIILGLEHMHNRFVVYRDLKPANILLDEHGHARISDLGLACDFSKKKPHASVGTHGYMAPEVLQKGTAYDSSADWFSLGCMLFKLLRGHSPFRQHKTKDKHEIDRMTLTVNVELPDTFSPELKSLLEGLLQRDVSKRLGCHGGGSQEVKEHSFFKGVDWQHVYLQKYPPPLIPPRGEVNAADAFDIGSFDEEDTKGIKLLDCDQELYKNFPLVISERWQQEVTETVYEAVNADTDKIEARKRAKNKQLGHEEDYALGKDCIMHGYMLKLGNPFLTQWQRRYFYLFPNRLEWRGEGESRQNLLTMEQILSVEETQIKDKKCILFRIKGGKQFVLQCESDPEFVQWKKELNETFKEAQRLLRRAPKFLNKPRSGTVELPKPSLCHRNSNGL
UniProt P15735, sequence (whole entry, looked up): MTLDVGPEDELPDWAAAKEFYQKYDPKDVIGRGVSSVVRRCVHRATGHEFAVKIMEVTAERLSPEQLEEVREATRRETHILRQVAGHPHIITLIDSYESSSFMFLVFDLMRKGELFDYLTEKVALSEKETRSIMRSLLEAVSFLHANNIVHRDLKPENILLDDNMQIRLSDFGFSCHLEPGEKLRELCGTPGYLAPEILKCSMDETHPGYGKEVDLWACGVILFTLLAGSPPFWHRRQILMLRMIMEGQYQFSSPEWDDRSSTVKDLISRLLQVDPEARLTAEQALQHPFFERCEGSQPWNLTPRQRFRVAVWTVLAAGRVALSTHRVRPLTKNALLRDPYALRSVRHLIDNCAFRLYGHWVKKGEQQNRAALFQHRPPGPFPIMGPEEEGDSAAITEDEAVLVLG
UniProt P54646, sequence (whole entry, looked up): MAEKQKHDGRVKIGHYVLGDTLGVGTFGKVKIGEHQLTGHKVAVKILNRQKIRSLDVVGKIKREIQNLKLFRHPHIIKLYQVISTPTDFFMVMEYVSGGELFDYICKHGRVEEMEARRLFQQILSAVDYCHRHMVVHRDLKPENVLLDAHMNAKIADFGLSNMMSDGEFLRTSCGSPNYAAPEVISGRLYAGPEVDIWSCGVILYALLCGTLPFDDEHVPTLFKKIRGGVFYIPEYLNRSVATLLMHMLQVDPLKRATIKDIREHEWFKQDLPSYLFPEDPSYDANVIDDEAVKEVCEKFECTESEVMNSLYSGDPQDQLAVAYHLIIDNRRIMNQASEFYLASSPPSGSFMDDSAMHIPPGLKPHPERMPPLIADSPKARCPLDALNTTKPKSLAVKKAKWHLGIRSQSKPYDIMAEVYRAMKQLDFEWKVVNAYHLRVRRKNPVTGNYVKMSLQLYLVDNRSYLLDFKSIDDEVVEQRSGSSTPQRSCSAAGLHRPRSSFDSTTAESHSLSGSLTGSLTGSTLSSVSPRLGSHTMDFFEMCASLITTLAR
UniProt P11802, sequence (whole entry, looked up): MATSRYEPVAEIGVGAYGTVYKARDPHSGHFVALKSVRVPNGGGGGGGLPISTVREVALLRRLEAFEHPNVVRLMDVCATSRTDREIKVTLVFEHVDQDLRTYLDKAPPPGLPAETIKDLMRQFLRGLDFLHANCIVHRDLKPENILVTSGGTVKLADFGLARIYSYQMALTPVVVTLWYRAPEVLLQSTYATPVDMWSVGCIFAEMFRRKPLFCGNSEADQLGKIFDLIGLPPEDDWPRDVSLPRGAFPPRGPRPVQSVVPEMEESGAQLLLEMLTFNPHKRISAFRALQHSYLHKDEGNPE
UniProt P41240, sequence (whole entry, looked up): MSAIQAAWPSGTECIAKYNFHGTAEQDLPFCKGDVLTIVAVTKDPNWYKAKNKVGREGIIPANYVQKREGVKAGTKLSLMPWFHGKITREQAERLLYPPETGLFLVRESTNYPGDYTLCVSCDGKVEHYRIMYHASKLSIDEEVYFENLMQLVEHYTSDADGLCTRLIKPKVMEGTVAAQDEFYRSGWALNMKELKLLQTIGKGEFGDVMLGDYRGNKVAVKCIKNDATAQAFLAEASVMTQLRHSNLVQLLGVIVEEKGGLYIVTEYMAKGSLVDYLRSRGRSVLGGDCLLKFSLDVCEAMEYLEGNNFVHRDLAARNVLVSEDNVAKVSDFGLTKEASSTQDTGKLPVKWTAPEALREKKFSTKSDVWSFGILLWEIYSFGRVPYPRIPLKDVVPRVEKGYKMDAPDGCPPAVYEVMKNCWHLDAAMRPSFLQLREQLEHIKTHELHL
UniProt P80192, sequence (whole entry, looked up): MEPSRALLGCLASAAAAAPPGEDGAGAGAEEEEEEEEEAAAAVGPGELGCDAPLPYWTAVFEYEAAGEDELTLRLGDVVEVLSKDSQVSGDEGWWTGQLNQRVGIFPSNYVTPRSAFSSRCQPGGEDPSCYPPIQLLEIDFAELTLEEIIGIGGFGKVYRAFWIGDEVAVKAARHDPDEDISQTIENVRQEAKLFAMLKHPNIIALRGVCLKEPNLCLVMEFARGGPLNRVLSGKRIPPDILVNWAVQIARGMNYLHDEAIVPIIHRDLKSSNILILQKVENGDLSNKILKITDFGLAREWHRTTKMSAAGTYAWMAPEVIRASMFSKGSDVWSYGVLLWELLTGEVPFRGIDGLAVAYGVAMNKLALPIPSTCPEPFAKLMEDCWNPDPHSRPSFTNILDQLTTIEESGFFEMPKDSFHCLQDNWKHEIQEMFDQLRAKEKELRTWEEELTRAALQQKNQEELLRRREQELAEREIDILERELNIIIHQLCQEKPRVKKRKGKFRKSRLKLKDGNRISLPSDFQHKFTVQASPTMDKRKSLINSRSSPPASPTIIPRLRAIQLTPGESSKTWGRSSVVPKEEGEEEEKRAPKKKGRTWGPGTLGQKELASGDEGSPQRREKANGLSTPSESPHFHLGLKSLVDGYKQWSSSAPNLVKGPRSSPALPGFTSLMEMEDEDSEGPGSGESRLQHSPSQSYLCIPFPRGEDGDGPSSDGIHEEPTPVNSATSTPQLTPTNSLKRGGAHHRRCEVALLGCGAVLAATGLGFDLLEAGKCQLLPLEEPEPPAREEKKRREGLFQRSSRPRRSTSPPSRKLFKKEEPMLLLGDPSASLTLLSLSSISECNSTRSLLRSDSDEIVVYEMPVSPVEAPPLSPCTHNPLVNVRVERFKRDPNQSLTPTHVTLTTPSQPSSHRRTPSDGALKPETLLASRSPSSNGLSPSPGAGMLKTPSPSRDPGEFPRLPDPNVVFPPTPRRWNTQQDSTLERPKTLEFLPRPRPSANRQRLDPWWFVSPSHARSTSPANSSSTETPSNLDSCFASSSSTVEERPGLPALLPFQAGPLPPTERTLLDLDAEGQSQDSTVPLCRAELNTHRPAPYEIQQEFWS

Set 1
Structure (SMILES): O=C1NC(c2ccccn2)Sc2ccccc21 (stereo not shown)
Effect on: cell-free assay
Method: competition with immobilised ligand
Tested at: 1 µM
| target | remaining binding [%] |
| --- | --- |
| CLK3 (Homo sapiens, UniProt P49761) | 97 |
| FYN (Homo sapiens, UniProt P06241) | 100 |
| GRK3 (Homo sapiens, UniProt P35626) | 42 |
| TSSK1B (Homo sapiens, UniProt Q9BXA7) | 66 |
| MAPK7 (Homo sapiens, UniProt Q13164) | 96 |
| CSK (Homo sapiens, UniProt P41240) | 100 |
| MAP3K9 (Homo sapiens, UniProt P80192) | 88 |
| EGFR (Homo sapiens, UniProt P00533) | 82 |
| TGFBR2 (Homo sapiens, UniProt P37173) | 85 |
| MARK3 (Homo sapiens, UniProt P27448) | 95 |
| PRKAA2 (Homo sapiens, UniProt P54646) | 100 |
| PHKG2 (Homo sapiens, UniProt P15735) | 73 |
| Cyclin-dependent kinase 4, with cyclin D1 (CDK4, Homo sapiens, UniProt P11802) | 91 |
| MAST1 (Homo sapiens, UniProt Q9Y2H9) | 91 |
| FGFR3 (Homo sapiens, UniProt P22607, G697C) | 100 |

Set 2
Target: Testis-specific serine/threonine-protein kinase 1 (TSSK1B, Homo sapiens, UniProt Q9BXA7)
Effect on: enzyme activity
Mode: inhibitor
Tested at: 0.5 µM
Reference: control
Target sequence (Q9BXA7 1-367): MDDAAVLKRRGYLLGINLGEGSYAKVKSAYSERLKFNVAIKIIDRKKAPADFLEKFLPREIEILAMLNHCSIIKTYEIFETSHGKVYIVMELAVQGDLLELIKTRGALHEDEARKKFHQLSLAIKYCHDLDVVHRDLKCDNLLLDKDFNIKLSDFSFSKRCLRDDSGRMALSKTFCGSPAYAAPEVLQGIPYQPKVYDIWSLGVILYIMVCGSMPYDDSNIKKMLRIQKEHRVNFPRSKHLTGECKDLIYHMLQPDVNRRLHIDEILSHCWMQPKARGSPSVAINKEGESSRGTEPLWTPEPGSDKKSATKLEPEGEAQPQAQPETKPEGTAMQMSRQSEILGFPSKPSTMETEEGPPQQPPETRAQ
| SMILES | remaining activity [%] |
| --- | --- |
| Cc1ccc(S(=O)(=O)/C=C/C#N)cc1 | 97.4 |
| CN1CCN(c2ccc3nc(-c4c(N)c5c(F)cccc5[nH]c4=O)[nH]c3c2)CC1 | 54.4 |
| O=C1Cc2c([nH]c3ccc(Br)cc23)-c2ccccc2N1 | 80.4 |
| CCCCc1c(-c2ccc(OC)cc2)[nH]c2nccnc12 | 65.3 |
| O=C1NC(=O)c2c1c1c3ccccc3[nH]c1c1[nH]c3cc(Br)ccc3c21 | 86.5 |
| O=C1Nc2ccc(Br)cc2/C1=C/c1cc2c([nH]1)CCCC2 | 36.1 |
| COc1ccc2c(c1)c(C1=C(c3c[nH]c4ccccc34)C(=O)NC1=O)cn2CCCN(C)C | 80.3 |
| O=C1Nc2ccccc2/C1=C\c1c(Cl)[nH]c2ccccc12 | 101 |
| O=Nc1c(-c2c(O)[nH]c3cc(Br)ccc23)[nH]c2ccccc12 | 83 |

Set 3
Host: human
Matrix: microsomes or S9
Tested at: 2 µM
Time: 0.5 h
| SMILES | remaining compound [%] |
| --- | --- |
| CC(=O)c1[nH]c(C)c(C(=O)N[C@H]2C[C@@H](c3nnc(CO)n3C)C2)c1C | 89.1 |
| Cc1ccc(S(=O)(=O)N2CCCC(C(=O)Nc3ccc4[nH]c(C5CCCO5)nc4c3)C2)s1 (stereo not shown) | 80.2 |
| CCCC(C)N(C)S(=O)(=O)c1ccc(NS(=O)(=O)CC)c(F)c1 (stereo not shown) | 44 |
| CCN1C(=O)C2(CC(=O)Nc3c2cnn3-c2nc3ccccc3s2)c2cccc(C)c21 (stereo not shown) | 37.4 |
| COc1ccc2c3c1O[C@H]1C[C@@H](O)C=C[C@]31C[C@H](C)N(Cc1ccc(Br)cc1)C2 | 76.7 |
| O=C(O)CN1C(=O)S/C(=C\C=C2\SCCN2CCCS(=O)(=O)O)C1=S | 62.3 |

Set 4
Organism: Sarcocystis neurona
Effect on: parasite activity
Tested at: 10 µM
Time: 96 h
| SMILES | activity class |
| --- | --- |
| O=C(O)COCCN1CCN([C@H](c2ccccc2)c2ccc(Cl)cc2)CC1 | inactive |
| Cc1nc2ccc(CN(C)c3ccc(C(=O)N[C@@H](CCC(=O)O)C(=O)O)s3)cc2c(=O)[nH]1 | inactive |
| CN(C)C(=O)Oc1ccc[n+](C)c1 | inactive |

Mixed results
| Structure (SMILES) | host | dose | setting | quantity | result |
| --- | --- | --- | --- | --- | --- |
| CC(C)n1cnc(-c2ccc(F)cc2)c1-c1ncc(C(=O)Nc2ccc(N3CCN(C)CC3)cc2)[nH]1 | human, idiopathic pulmonary fibrosis | 30 mg once daily | trial, treatment-emergent | patients with Pneumonia | 0% |

Some of these lines once more (set 1):
| target | remaining binding [%] |
| --- | --- |
| MARK3 (Homo sapiens, UniProt P27448) | 95 |
| PRKAA2 (Homo sapiens, UniProt P54646) | 100 |
| PHKG2 (Homo sapiens, UniProt P15735) | 73 |
| Cyclin-dependent kinase 4, with cyclin D1 (CDK4, Homo sapiens, UniProt P11802) | 91 |
